Experimental data gathered from unrelated publications.
A part holds a random share of what one study measured.

Series 1 — technique: universal PBM; form: double-stranded DNA, one strand shown; medium: in vitro; concentration: 600 nM; reading: higher = stronger binding
Target: Sal-like protein 4, full length isoform A (SALL4, Homo sapiens, UniProt Q9UJQ4, residues 1-1053)
Sequence of UniProt Q9UJQ4 (whole entry, looked up): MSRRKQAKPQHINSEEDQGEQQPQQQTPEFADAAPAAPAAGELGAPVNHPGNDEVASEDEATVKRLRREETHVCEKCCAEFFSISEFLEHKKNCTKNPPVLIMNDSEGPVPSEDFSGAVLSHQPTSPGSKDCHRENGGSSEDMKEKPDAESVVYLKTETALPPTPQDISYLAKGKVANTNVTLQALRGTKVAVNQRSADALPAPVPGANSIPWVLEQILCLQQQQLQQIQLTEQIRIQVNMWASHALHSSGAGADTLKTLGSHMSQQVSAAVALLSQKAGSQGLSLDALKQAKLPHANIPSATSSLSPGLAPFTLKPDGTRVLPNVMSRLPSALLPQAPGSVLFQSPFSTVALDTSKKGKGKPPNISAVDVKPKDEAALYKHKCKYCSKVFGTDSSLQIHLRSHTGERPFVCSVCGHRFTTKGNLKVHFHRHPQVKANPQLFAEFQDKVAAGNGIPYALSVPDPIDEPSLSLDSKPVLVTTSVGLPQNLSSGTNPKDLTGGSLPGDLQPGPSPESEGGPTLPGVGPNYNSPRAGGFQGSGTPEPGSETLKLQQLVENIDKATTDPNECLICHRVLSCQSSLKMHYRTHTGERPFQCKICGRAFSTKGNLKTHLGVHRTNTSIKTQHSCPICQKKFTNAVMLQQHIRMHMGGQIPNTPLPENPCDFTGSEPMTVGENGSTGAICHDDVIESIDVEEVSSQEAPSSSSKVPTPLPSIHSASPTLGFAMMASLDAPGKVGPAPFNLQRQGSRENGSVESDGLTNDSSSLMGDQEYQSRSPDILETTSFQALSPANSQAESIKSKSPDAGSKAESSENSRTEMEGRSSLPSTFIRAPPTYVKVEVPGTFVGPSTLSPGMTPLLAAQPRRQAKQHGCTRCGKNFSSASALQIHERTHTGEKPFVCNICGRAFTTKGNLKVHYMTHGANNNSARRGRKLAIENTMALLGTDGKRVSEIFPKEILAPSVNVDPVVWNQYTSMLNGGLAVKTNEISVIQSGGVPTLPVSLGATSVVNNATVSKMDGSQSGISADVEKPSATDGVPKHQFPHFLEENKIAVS
Notes: 8-mer, flanks averaged, mean of replicates
| Oligonucleotide | E-score |
| --- | --- |
| GCCTAGAC | -0.18 |
| CCACAAAC | 0.0633 |
| TATGTCAA | 0.344 |
| GAGGCCCA | -0.285 |
| ACTAATGA | 0.274 |
| GTTGCTAA | 0.143 |
| ACTTAGTC | -0.0278 |
| GCAGGACA | -0.133 |
| CCCAACTA | 0.0638 |
| AGTAATTG | 0.133 |
| AACTACAC | 0.131 |

Series 2 — technique: protein binding microarray; form: double-stranded DNA, one strand shown; medium: in vitro; concentration: not given; baseline: not given; reading: higher = stronger binding
Target: Histone acetyltransferase KAT6A, winged helix 2, GST fusion (KAT6A, Homo sapiens, UniProt Q92794, residues 85-181)
Notes: 8-mer, flanks averaged, mean of 2 arrays, mostly near background
Target sequence (chain): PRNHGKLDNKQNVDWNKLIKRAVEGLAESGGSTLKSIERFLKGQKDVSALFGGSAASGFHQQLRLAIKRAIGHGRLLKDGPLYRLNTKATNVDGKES
| Oligonucleotide | E-score |
| --- | --- |
| CATTGAAA | 0.114 |
| ACCAGAGG | -0.114 |
| GACAGATC | 0.0475 |
| CTTGACCA | -0.0332 |
| ACACCCGC | 0.00788 |
| CCGTCACC | -0.00754 |
| ACATGCGT | -0.12 |
| CCATAGAA | 0.0373 |
| CGGGGAGC | 0.064 |
| AGGATGGG | 0.0386 |

Series 3 — technique: RNA Bind-n-Seq; form: RNA; medium: in vitro; concentration: 1 µM; notes: whole 134-nt RNA, ends assumed; together with: 150 mM KCl; baseline: input library; reading: higher = stronger binding
Target: Ras GTPase-activating protein-binding protein 1, C-terminal RGG region (G3BP1, Homo sapiens, UniProt Q13283)
Sequence of UniProt Q13283 (whole entry, looked up): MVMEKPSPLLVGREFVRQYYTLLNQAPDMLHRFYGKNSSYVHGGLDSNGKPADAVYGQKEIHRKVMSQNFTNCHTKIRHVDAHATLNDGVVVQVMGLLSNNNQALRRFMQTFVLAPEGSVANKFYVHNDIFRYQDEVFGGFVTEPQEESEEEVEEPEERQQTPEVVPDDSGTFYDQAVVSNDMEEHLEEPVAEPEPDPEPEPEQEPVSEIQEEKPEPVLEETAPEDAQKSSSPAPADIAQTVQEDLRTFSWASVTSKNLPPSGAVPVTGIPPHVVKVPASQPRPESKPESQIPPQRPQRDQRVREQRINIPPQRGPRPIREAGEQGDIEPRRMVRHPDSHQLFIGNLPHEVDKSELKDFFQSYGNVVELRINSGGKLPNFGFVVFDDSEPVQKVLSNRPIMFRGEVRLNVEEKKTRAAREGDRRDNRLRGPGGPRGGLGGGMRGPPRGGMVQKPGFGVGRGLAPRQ
| Oligonucleotide | log2 enrichment |
| --- | --- |
| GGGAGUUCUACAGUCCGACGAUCUGCACACCGCCUUGCACAUAGCAGAGGCUCCGGGCUCACUCCUUCCUGGUGGGAAAGGAAGAUGCCUGUCCUCUCCGUGGAAGACCCUGGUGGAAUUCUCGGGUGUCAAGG | -1.51 |
| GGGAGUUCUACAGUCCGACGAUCUGGGAGGUGGAUUUUGUUUAUUUUUUUAGCUCAUUUCCAGGGGUGGGAAUUUUUUUUUAAUAUGUGUCAUGAAUAAAGUUGUUUUCGAAAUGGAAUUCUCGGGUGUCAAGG | 2.88 |
| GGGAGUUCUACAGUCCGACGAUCUGUGGAGGAGACGGCCGACUCGACGCUGUGCCACAUCCUGAACCUGUACCGGCGGGCCACCUGGCUGCACCAGGCGCUGCGGGAGGGCACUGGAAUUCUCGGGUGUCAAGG | -0.769 |
| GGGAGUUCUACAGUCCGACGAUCAAGUCCUGUGCUACACAUCGUAUGUACCGAAUCGGGUGGGUUUUUGGGUUUUUGGGAAAGUAUUAUGUUACGCCGUUCGGAUCUGCACUUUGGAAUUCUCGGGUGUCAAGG | -0.147 |
| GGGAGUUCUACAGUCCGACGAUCUUCUUGCCAGAGACGAAGAAGCGCAAGAAACGCAAGUCAGAGGAUGGCACGCCAGCGGAGGAUGGCACACCUGCAGCCACCGGCGGGAGCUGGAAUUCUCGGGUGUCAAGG | -1.96 |
| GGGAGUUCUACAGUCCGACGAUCCCUGUGCUACACAUCGUAUGUACCGAAUCGGGAAAAAAGGGGAAAAAAGGGAAAAAAGGGGAAAGUAUUAUGUUACGCCGUUCGGAUCUGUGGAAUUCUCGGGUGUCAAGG | -1.31 |
| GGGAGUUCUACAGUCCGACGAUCCCUGUGCUACACAUCGUAUGUACCGAAUCGGGGAAAAAAAGGGGAGGGGUUUUUUUGGGGAAAGUAUUAUGUUACGCCGUUCGGAUCUGCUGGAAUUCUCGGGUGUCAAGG | 0.839 |
| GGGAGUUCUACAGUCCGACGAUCUUUAAUGUCUGCGGCACAAUGCCUGUCUGUGGGACCAUCCUGGGAAAACCUGCUUCUGGCUGUGAGGCAGAAACCCAAACUGAAGAGCUCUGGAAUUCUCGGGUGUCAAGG | 0.826 |
| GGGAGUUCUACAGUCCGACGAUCGUCCUGUGCUACACAUCGUAUGUACCGAAUCGGGGUGGGGAAAGGGGAAAAAAAGGGGAAAGUAUUAUGUUACGCCGUUCGGAUCUGCACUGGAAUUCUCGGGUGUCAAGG | 0.834 |
| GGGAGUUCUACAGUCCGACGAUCAAGUCCUGUGCUACACAUCGUAUGUACCGAAUCGGGCCCGGGGCCCGGGGCCCGGGAAAGUAUUAUGUUACGCCGUUCGGAUCUGCACUUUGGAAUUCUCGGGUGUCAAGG | -2.29 |
| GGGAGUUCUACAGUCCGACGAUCAGUCCUGUGCUACACAUCGUAUGUACCGAAUCGGGUUUGGGUUUGGGUUUUUUUGGGAAAGUAUUAUGUUACGCCGUUCGGAUCUGCACUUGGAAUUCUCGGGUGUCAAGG | 1.05 |
| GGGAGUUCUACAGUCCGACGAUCUAACUUUAGAGGAGGAUCUGAUGGAUAUGGCAGUGGACGUGGAUUUGGGGAUGGCUAUAAUGGGUAUGGAGGAGGACCUGGAGGUAGCAAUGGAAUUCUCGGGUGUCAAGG | -0.955 |

Further values, each from its own experiment
| Molecule | target | assay | system | conditions | how to read | measurement | result |
| --- | --- | --- | --- | --- | --- | --- | --- |
| PhoQ, residues 284 288 289 292 302 303 ALSMDL | PhoP, residues 12 14 15 18 19 NHTVL (Escherichia coli, UniProt P23836) | Sort-seq, item: YFP reporter | E. coli | PhoQ-PhoP variant library, together with: 10 µM Mg2+ | baseline: high Mg2+ state, higher = stronger signaling | fold induction | 5.2 |
